Results gathered from unrelated publications.
Numbered parts are unrelated; each lists some results of a single study. Values joined by “and” are separate records of one study, mostly repeats; a detail may differ. Substitutions count along the parent as printed.

Set 1 — technique: RNA Bind-n-Seq; form: RNA; matrix: in vitro; concentration: 365 nM; reference: no-protein control; reading: higher = stronger binding
Target: RNA binding protein fox-1 homolog 2, RRM domain, GST-SBP tag (RBFOX2, Homo sapiens, UniProt O43251-10, residues 100-194)
Notes: natural RNA segment, single round, ends assumed
Constant ends, left off below: GGGAGUUCUACAGUCCGACGAUC … UGGAAUUCUCGGGUGCCAA
Residues (chain): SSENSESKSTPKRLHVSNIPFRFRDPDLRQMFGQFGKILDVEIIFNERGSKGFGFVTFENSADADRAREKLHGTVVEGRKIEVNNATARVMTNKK
Sequence | RBNS enrichment (R)
ACAUAUGUAAUAUACCCUUAUAUUAUGUAUGAGGGAUUUAAAAUAUUGAAAUGGUUUCCUAGUGGUAGUAGGAAGACUGAAUAAGAACAACCUAUUUUCUGGUUGUUGUC | 0.263
CUGGGCACCUGCUGCUGUUAGGGCCAAUGCAUAGUCUCAGCACCGGUGUCCUAAGGUUAAGGCGGUGCGCCUUGUCAUGUGCUCCUUGUACCAUGCCAUCUGUGCCAGUG | 0.647
ACAUGAGUAAUCAAAAUUAAAUUAUAGCAUAAUGAAAUUAGACUCUUAACAGGUACGGCACACACAAGUUAAUAGUACUCUGCUAUAGGUGCUAUGUUACUUACAAGUAU | 0.382
UUUAUUUUUUAUUUUAAAAGAAUAUUGACUUAUUUAGCACAAGCUAUUUUUCCCUCUCUGGUGAUAAGGUUUGUACAGACUGGUUUGGUAAAUGCUAAAUUUUUGUCUUU | 1
UUUAUUUUAAAAAUAAUGCAUGUGCACUUUAGAAAUUUUUGAAAAUAAAGAUACAUGAAAGAAAGUUAUAUAAUUUUUCUGCAACAAUAACUGUGCUUGCUAAAGUGAUG | 66.1
CGGCUGCGACUUCAGAAGCGAGGCACAGGCGGUGUGGACACGGCUGCGGUGGGCGGGGUCUUCGACGUCUCCAACGCUGACCGCCUGGGCUUCUCAGAGGUGGAGCUGGU | 0.599
AACCAGUGCUUUGGCCACUUUCAUGCUAGCAGAGUGGACCUUGGUCCUCCCUGCUUAGAAAGCUACUUUAGAAGCCAUUGUAGCCACAGUGGAAAGUCAAGGUUUGUGUC | 0.279
UCAGACUCUCAGUCCUCAGAUGUGGAAAUAAAACAAAACACCUGUAUGGCUGCCAUUCUCUUCAGCCCUCGCUCUCCCCUUUCCACAGCCUCCACCCCUGACCCCCAUCC | 0.526
GCUGGCUUAUCGGCCACCCAAUGACCCUGUUCAGUAUCUGCUUGUCAUCUUGCCAGAACAAGCUCUCAGCAGCCCAGGAACAGUCCAUGGCCUUCUCAGGCCUGGCCCUU | 0.228
AGAACUGGAUGAGCCAAACAGCCACCAUCUUUACUCUUGACUAAAUGGACCUAUCAAGAAUAUUAAAAAGCUUGGAAAUACCCUAUCCACUUUUGAAAAAUUAGAAUUCC | 0.422
UUCUAGUUCUUUAAAUGAGACAAUCACUUUGUUUUCUAAUAGAUGUGACCUGUGUAACUUAAAAAAUCUGAGGGUUUGAGAGAGGUUGCUCUAGAUUUCCAAUGACGAUA | 0.35
AGAAUGUCAGUCAGCUGACUUAAAAAACAUUGGUUUUACUAAGUCUGCCUUCCCCUUCUAAGGAAGAACUGAGUGGGUAAGGGACAGGUGUGUAAAAUCUCCAAAUGGAU | 0.434

Set 2 — technique: RNA Bind-n-Seq; form: RNA; matrix: in vitro; concentration: 20 nM; notes: 6-mer, flanks averaged, single round; with: 150 mM LiCl; reference: input library; reading: higher = stronger binding
Target: TAR DNA-binding protein 43, full length, His tag (TARDBP, Homo sapiens, UniProt Q13148, residues 1-414)
Sequence | 6-mer enrichment (R)
AAUGUA | 1.03
UACUCA | 0.836
AUUCGA | 0.816
UCUCAG | 0.829
GCUAGU | 0.971
UUGCCU | 1.06
UGGUUU | 1.27
UGGGAG | 1.26
AAACUG | 0.843
UCCCAA | 0.921
AUCGUC | 0.995
ACCAGG | 0.898
GGCAUA | 0.918
UUAGCA | 0.898
UUGAGU | 1.22

Set 3 — target: CCND2, cyclin fold, Cln2 fusion (human); technique: yeast growth competition, sequencing; matrix: yeast; notes: weak parent motif; reference: not given; reading: higher = stronger binding
Parent: NPAT docking peptide (human); PCHRRVLCFDSTT
Variant | normalised enrichment score
C2A | 0.145
F9L | -0.224
P1A | -0.0366
T13A | -0.187
F9A | 0.0276
H3A | 0.443
D10A | 0.152

Set 4 — technique: DHFR PCA, deep sequencing; matrix: yeast; with: (+)-ABA 0 µM; reference: wild-type fitted maximum; reading: higher = stronger binding
Target: ABI1, truncated, D143A, DHFR fusion (Arabidopsis thaliana)
Notes: methotrexate growth selection, single substitutions
Parent: PYL1, truncated, DHFR fusion (Arabidopsis thaliana); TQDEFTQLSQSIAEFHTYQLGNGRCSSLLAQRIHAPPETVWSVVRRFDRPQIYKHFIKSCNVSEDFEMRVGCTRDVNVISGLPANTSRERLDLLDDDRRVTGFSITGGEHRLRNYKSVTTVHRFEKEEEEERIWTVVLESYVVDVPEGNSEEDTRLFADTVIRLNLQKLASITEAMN; partner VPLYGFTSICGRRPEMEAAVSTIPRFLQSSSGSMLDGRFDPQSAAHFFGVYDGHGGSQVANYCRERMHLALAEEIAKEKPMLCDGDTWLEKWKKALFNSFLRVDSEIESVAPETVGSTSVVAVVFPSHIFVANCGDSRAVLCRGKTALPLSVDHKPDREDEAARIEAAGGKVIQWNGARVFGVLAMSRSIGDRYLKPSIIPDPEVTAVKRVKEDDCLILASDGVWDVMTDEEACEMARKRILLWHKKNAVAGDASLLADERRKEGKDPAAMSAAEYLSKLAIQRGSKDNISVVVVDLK
Variant | relative binding score [%]
V142N | -10.5
V145I | 38.3
A13D | 24.1
D92M | 3.8
V62E | -4.85
S117M | -7.77
F56A | 6.54
P146D | -7.82
R113Y | -3.36
R69N | 7.45
M176Q | 10.3

Set 5 — technique: aptamer microarray, sandwich; form: DNA with 2'F-ANA; matrix: in vitro; concentration: 200 nM; with: Cy3 exosite-II aptamer, 400 nM; reading: higher = stronger binding; sequence: GGTTGGTGTGGTTGG
Target: Prothrombin, mature alpha-thrombin (F2, Homo sapiens, UniProt P00734)
Notes: whole 15-mer aptamer, many near background
Modification | mean fluorescence intensity [a.u.]
2'F-ANA at 2 4 6 8 9 10 15 | 80.1
2'F-ANA at 2 3 5 6 10 12 13 15 | 58.1
2'F-ANA at 1 4 5 6 8 9 10 13 14 15 | 48
2'F-ANA at 1 2 3 5 6 11 12 13 15 | 71.5
2'F-ANA at 1 2 6 12 13 15 | 241
2'F-ANA at 1 4 6 8 9 10 11 13 15 | 54.5
2'F-ANA at 1 2 3 5 6 7 8 9 11 12 13 15 | 73.8
2'F-ANA at 1 7 8 10 11 12 13 | 64.4
2'F-ANA at 2 3 5 7 8 9 12 13 15 | 158
2'F-ANA at 5 8 10 11 13 14 | 52.8
2'F-ANA at 1 3 4 5 8 12 15 | 156
2'F-ANA at 5 8 9 14 15 | 92.1
2'F-ANA at 1 2 5 6 7 9 13 14 | 59.2
2'F-ANA at 1 4 5 8 10 15 | 44.9
2'F-ANA at 1 3 5 7 11 12 15 | 102
2'F-ANA at 3 4 5 10 11 15 | 50.9
2'F-ANA at 1 6 8 9 10 11 12 14 | 53.2
2'F-ANA at 1 6 8 11 13 14 | 63.1
2'F-ANA at 2 6 8 13 14 15 | 121
2'F-ANA at 1 2 4 5 6 10 12 14 15 | 49.1
2'F-ANA at 3 5 6 8 10 11 13 14 | 51.7
2'F-ANA at 1 2 3 7 | 254
2'F-ANA at 1 2 3 4 6 7 8 9 10 12 15 | 73.9
2'F-ANA at 2 4 5 6 8 13 14 | 52.5
2'F-ANA at 1 5 7 9 12 13 14 15 | 46.3

Mixed results
Molecule | target | test | test system | conditions | scale | measurement | value
PhoQ, residues 284 288 289 292 302 303 AQGLTV | PhoP, residues 12 14 15 18 19 LWHCS (Escherichia coli, UniProt P23836) | Sort-seq, item: YFP reporter | E. coli | PhoQ-PhoP variant library, with: 10 µM Mg2+ | reference: high Mg2+ state, higher = stronger signaling | fold induction | 1.36 and 1.65

Repeated from above (set 4):
Variant | relative binding score [%]
R113Y | -3.36
V62E | -4.85
P146D | -7.82
M176Q | 10.3
A13D | 24.1
D92M | 3.8
